Assay results collected from several papers.
Every numbered part comes from another study and shows a few of its results, in no order. Values joined by “and” are separate records of one study, mostly repeats; a detail may differ.
UniProt P10721, sequence (whole entry, unmodified, looked up): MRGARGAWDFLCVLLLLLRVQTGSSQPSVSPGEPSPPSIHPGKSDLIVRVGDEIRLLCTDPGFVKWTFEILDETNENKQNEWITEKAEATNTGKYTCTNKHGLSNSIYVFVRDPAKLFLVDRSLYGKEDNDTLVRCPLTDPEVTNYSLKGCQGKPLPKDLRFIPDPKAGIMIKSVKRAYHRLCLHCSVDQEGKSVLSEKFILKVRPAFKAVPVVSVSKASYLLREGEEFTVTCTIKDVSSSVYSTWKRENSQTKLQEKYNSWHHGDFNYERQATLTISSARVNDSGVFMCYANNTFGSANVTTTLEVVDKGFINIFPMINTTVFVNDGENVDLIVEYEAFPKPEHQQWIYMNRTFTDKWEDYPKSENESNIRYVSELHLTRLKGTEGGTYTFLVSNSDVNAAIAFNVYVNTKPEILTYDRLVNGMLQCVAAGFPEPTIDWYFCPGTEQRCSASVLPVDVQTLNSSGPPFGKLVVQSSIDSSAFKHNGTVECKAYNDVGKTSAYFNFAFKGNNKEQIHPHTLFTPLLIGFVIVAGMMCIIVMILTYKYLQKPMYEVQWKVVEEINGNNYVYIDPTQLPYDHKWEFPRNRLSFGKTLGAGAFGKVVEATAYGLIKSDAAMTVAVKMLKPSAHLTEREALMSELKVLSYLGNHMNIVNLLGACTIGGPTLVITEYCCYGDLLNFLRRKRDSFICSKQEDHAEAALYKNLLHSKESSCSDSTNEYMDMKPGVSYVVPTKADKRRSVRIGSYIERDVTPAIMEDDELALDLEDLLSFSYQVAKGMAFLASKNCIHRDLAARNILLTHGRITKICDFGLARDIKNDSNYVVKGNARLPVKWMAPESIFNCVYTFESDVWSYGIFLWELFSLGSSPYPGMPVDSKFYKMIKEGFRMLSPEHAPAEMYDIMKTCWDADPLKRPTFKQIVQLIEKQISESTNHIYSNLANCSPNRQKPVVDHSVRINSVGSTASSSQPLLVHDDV
UniProt P42336, sequence (whole entry, unmodified, looked up): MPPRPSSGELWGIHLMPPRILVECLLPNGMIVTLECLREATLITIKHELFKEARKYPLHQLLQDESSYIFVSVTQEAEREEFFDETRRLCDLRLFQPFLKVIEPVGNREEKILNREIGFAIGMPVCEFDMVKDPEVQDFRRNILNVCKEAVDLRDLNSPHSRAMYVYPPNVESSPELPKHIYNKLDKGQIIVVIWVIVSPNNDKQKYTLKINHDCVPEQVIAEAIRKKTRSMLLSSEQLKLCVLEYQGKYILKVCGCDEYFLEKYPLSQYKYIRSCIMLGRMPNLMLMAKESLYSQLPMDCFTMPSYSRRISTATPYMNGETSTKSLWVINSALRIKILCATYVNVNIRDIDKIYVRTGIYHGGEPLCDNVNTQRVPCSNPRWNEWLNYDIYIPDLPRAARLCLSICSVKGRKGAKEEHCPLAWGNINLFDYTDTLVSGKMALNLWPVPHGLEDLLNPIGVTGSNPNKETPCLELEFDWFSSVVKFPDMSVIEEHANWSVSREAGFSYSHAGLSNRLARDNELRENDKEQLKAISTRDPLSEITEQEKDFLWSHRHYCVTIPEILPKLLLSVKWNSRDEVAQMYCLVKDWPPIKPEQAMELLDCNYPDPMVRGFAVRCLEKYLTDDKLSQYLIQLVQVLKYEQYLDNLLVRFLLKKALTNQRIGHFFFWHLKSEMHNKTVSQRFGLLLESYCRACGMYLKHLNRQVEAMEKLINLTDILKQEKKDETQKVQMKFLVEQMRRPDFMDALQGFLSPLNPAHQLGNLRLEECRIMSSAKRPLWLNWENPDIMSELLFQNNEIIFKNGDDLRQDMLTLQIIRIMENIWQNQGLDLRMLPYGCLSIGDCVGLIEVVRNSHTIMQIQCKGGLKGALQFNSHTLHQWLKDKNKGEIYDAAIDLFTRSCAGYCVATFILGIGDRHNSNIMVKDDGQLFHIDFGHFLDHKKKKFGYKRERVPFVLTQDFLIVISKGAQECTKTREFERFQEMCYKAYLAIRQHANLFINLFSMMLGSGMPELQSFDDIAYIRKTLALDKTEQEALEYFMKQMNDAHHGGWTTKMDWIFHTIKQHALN
UniProt Q86Z02, sequence (whole entry, looked up): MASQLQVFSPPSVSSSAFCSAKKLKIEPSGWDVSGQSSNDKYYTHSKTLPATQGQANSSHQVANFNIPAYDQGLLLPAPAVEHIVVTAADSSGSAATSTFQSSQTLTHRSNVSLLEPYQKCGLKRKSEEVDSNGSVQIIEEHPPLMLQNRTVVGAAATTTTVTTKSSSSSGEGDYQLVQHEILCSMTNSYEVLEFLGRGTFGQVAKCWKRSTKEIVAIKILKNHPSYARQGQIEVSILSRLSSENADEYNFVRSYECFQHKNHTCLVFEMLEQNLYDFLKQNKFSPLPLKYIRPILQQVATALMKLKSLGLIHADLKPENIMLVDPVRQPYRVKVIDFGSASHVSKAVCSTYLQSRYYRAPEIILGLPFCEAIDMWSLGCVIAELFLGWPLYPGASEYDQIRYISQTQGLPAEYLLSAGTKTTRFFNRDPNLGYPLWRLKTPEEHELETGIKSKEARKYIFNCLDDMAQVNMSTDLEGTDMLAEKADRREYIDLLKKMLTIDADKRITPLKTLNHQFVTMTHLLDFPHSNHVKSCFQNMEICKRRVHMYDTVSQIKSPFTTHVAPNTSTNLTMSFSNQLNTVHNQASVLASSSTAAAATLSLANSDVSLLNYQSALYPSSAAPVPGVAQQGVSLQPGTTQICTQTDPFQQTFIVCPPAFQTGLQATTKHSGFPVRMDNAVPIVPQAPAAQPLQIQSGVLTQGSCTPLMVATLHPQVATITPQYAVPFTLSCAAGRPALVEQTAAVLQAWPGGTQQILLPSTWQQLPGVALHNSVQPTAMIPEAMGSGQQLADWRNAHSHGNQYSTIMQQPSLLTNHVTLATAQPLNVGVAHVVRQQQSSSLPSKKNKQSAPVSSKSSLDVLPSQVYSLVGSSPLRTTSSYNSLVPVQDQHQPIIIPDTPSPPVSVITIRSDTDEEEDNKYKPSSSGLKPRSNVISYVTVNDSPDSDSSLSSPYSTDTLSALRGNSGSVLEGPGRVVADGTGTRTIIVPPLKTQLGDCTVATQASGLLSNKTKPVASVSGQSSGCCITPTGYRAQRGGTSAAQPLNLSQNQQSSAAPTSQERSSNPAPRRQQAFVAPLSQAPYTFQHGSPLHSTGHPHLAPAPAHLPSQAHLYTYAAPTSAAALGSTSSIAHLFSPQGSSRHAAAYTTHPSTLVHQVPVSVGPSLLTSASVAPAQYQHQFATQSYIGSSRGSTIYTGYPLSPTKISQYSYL
UniProt Q9C098, sequence (whole entry, looked up): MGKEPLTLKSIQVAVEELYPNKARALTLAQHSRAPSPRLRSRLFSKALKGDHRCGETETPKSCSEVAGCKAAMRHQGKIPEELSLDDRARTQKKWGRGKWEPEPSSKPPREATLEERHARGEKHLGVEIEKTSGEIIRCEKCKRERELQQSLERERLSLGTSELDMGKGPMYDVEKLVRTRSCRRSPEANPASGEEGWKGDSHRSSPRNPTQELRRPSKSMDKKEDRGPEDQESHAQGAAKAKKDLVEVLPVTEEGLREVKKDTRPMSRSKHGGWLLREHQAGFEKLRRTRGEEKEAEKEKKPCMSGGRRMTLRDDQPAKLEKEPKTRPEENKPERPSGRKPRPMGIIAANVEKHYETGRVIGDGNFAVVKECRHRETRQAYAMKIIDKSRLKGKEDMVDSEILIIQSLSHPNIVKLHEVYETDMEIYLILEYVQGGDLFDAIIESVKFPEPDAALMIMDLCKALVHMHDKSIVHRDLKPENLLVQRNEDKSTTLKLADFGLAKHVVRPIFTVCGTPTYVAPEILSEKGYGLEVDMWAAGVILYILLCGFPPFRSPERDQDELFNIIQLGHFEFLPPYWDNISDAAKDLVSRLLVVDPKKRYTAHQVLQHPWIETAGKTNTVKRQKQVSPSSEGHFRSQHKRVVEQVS
UniProt Q8NG66, sequence (whole entry, looked up): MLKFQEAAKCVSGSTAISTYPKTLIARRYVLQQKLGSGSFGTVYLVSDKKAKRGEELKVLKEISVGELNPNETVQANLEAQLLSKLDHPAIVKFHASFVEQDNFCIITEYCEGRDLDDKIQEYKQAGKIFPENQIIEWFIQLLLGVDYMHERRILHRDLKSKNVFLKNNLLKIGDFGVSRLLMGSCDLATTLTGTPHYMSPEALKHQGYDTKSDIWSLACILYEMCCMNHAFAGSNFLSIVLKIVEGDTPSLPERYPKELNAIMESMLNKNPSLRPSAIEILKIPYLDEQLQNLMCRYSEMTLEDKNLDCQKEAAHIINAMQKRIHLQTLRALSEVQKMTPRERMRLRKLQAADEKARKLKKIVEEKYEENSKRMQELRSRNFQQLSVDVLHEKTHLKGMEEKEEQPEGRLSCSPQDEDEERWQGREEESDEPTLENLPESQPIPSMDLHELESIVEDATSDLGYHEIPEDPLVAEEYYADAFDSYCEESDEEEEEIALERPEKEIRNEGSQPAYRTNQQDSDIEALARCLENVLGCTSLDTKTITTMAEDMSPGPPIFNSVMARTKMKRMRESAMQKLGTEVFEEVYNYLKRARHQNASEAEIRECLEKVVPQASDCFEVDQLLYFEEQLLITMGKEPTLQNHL
UniProt Q9H3Y6, sequence (whole entry, looked up): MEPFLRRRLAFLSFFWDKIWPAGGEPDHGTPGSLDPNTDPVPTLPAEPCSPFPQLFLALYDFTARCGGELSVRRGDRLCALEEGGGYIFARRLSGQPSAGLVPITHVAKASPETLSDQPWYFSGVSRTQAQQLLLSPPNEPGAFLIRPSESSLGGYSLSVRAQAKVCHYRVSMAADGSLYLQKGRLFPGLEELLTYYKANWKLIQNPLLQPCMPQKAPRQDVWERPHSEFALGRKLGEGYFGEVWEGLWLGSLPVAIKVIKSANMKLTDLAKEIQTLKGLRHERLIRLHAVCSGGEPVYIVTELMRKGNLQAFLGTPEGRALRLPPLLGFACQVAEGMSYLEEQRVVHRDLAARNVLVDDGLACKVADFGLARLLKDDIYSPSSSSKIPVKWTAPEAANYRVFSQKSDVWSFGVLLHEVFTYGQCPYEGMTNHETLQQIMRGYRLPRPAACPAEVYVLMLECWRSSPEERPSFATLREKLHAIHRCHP

Series 1 — cell line: mouse MPNST tumor cells; method: high-content immunofluorescence imaging; refers to: nuclear SOX9; tested at: 10 µM; time: 12 h; notes: mean of 2 replicates; relative to: DMSO control; direction: higher = more nuclear SOX9; measurement: nuclear SOX9 intensity
Compound = Cc1onc(C(=O)N2CCN(C(c3ccc(Cl)cc3)c3ccc(Cl)cc3)CC2)c1[N+](=O)[O-]; result = 169 % of DMSO
Compound = CCc1nc(N)nc(N)c1-c1ccc(Cl)cc1; result = 104 % of DMSO and 124 % of DMSO
Compound = NCCCCCCCCCCNS(=O)(=O)c1cccc2c(Cl)cccc12; result = 110 % of DMSO

Series 2 — host: mouse; medium: microsomes or S9; tested at: 2 µM; time: 0.5 h; measurement: remaining compound
SMILES = COc1cnc(CN2CCCCC2c2ccc(CN(C)C)cc2)cc1O (stereo not drawn); result = 54%
SMILES = CCOc1ccc(C2=NNC(c3ccncc3)=Nc3ccc(C(C)C)cc32)cc1; result = 20.6%
SMILES = COc1ccc(Cl)cc1S(=O)(=O)NCCn1c(-c2ccncc2)nc2ccccc21; result = 5.5%

Series 3 — method: protein-binding microarray; form: hairpin DNA; medium: in vitro; tested at: not given; relative to: not given; direction: higher = stronger binding; measurement: median fluorescence; constant ends, left off below: GAGGCCG … CGGCCTCACACTC
Target: Cyclic AMP-dependent transcription factor ATF-1, full length (ATF1, Homo sapiens, UniProt P18846, residues 1-271)
Notes: whole hairpin DNA, median over replicate spots
Target sequence (chain): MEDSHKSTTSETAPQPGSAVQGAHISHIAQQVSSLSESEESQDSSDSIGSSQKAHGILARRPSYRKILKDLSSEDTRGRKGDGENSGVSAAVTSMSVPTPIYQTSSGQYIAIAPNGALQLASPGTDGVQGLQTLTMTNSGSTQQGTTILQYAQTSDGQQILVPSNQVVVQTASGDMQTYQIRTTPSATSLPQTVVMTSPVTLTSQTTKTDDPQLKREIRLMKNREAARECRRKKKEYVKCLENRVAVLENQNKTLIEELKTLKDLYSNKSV
Sequence = ACGACGTCCTGCCTCCTGGCAGGACGTCGT (5mC at 9 15 35); result = 3650 a.u.
Sequence = ACGTCGTCGTGCCTCCTGGCACGACGACGT (5mC at 9 15 29 35); result = 3310 a.u.
Sequence = GATCACGTCAGCCTCCTGGCTGACGTGATC (5mC at 11); result = 5200 a.u.
Sequence = CGTGACGTCAGCCTCCTGGCTGACGTCACG (5mC at 8 36); result = 15200 a.u.
Sequence = GCGACGTCGTGCCTCCTGGCACGACGTCGC (5mC at 9 15 29 35); result = 4760 a.u.
Sequence = GATGCGGTCAGCCTCCTGGCTGACCGCATC (5mC at 12); result = 3440 a.u.
Sequence = GCTCGCGTCAGCCTCCTGGCTGACGCGAGC (5mC at 11); result = 4010 a.u.
Sequence = GCTGACCTCAGCCTCCTGGCTGAGGTCAGC; result = 3260 a.u.

Series 4 — read-out: cell-free assay; method: competition with immobilised ligand; tested at: 1 µM; measurement: remaining binding
SMILES: O=C1NC(c2ccccn2)Sc2ccccc21 (stereo not drawn)
target = KIT (Homo sapiens, UniProt P10721, A829P); result = 98%
target = DCLK3 (Homo sapiens, UniProt Q9C098); result = 69%
target = AKT1 (Homo sapiens, UniProt P31749); result = 89%
target = CDKL5 (Homo sapiens, UniProt O76039); result = 100%
target = HIPK1 (Homo sapiens, UniProt Q86Z02); result = 75%
target = KIT (Homo sapiens, UniProt P10721, L576P); result = 89%
target = KIT (Homo sapiens, UniProt P10721, T670I/V559D); result = 87%
target = CSNK1A1 (Homo sapiens, UniProt P48729); result = 72%
target = NEK11 (Homo sapiens, UniProt Q8NG66); result = 95%
target = FGFR2 (Homo sapiens, UniProt P21802); result = 100%
target = PIK3CA (Homo sapiens, UniProt P42336, H1047Y); result = 67%
target = KIT (Homo sapiens, UniProt P10721, D816V); result = 100%
target = FGFR4 (Homo sapiens, UniProt P22455); result = 89%
target = SRMS (Homo sapiens, UniProt Q9H3Y6); result = 84%
target = DDR1 (Homo sapiens, UniProt Q08345); result = 86%
target = Tyrosine-protein kinase ABL1, non-phosphorylated (ABL1, Homo sapiens, UniProt P00519); result = 69%
target = ERBB3 (Homo sapiens, UniProt P21860); result = 88%
target = PIKFYVE (Homo sapiens, UniProt Q9Y2I7); result = 100%

Series 5 — organism: Sarcocystis neurona; read-out: parasite growth; tested at: 10 µM; measurement: inhibition
Structure (SMILES) = O=C(c1ccccc1)c1ccc2n1CCC2C(=O)O (stereo not drawn); result = -45.2%
Structure (SMILES) = O=C(O)COCCN1CCN(C(c2ccccc2)c2ccc(Cl)cc2)CC1 (stereo not drawn); result = 21.6%
Structure (SMILES) = C#C[C@]1(O)CC[C@H]2[C@@H]3CCC4=Cc5oncc5C[C@]4(C)[C@H]3CC[C@@]21C; result = 12%

Mixed results
Compound = CN1CC[C@H](c2c(O)cc(O)c3c(=O)cc(-c4ccccc4Cl)oc23)[C@H](O)C1; target or system = HuT78; assay = qPCR, refers to: RARA; setting = concentration not given, 12 h, unit not given; scale = relative to: untreated control; measurement = mRNA level; result = 0.687 and 0.88 and 0.901
Compound = CC(C)n1cnc(-c2ccc(F)cc2)c1-c1ncc(C(=O)Nc2ccc(N3CCN(C)CC3)cc2)[nH]1; system = human, idiopathic pulmonary fibrosis; setting = 30 mg once daily, trial, treatment-emergent; measurement = grade 5 ventricular extrasystoles; result = 0%
Compound = CC(C)S(=O)(=O)c1ccc2nccc(Nc3ccc4sc(C5CCCC5)nc4c3)c2c1; target or system = HT-29; assay = necroptosis; setting = together with: TNF-α; measurement = EC50; result = 854 nM
Compound = CCC[C@H]1NC(=O)CSC[C@@H](C(=O)OCC)N(C)C(=O)[C@H](CC(C)C)NC(=O)[C@@H](C)N(C)C(=O)[C@@H](CC(C)C)NC(=O)[C@H](C)N(C)C(=O)[C@H]2CCCN2C(=O)[C@H](CC(C)C)NC(=O)CN(C)C1=O; assay = PRP chromatography estimate; system = 1,9-decadiene/PBS; setting = pH 7.4; measurement = logD; result = -0.0604
